Results collected from several papers.
Lines come from different studies, so protocols differ.
TDP1: Tyrosyl-DNA phosphodiesterase 1 (TDP1, Homo sapiens, UniProt Q9NUW8)
UniProt Q9NUW8, sequence (whole entry, looked up): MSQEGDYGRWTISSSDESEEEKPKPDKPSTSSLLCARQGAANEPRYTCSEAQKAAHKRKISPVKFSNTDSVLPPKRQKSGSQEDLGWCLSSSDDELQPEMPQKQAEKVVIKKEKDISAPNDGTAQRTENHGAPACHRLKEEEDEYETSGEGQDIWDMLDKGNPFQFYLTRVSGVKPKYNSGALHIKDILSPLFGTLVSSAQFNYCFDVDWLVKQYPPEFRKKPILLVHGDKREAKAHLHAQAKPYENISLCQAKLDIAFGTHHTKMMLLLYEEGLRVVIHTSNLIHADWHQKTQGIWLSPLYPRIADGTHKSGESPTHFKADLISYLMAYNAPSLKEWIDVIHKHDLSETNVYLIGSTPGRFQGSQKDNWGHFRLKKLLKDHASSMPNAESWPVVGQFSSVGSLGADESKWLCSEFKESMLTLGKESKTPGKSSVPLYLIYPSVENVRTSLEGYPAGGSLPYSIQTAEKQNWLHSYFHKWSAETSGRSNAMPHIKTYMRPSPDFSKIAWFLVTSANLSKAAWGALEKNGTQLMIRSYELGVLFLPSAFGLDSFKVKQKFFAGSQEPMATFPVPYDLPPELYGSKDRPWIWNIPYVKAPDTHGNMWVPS
UniProt P33261, sequence (whole entry, looked up): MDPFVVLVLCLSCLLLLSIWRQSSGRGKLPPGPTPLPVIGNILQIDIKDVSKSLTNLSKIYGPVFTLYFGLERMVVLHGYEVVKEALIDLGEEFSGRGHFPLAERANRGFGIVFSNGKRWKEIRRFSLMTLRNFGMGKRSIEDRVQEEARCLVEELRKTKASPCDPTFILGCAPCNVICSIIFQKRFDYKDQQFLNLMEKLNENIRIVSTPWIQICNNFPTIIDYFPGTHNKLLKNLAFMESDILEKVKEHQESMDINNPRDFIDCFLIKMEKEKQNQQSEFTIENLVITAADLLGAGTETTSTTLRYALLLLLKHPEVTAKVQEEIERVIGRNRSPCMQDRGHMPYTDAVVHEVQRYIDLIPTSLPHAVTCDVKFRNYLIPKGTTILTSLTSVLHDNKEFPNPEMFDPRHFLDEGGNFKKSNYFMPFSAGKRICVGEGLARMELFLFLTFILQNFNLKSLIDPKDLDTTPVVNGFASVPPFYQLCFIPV

SMILES	tested on	test	test system	setting	scale	measurement	result
O=C(Sc1cccccc1=O)c1cccc(OC(F)(F)F)c1	HepDES19	cell growth or viability, MTS	–	72 h	–	CC50	100 µM
CCN(CC)CC#CCNc1ccnc2cc(Cl)ccc12	Salmonella typhimurium	mini-Ames test	TA100	125.0 µg/well, without S9	–	revertants per well	25
O=C1C2CC3CC1CC(C(=O)N1CCN(c4ccc([N+](=O)[O-])c5ncccc45)CC1)(C3)C2	Salmonella typhimurium	Ames test	TA100	0.05 µg/well, with S9	–	mean revertant colonies	26 colonies/well
COc1cccc(OC)c1-c1cc(C(=O)NC2(C(=O)O)C3CC4CC(C3)CC2C4)nn1-c1ccc(C(=O)NCCNC(=O)[C@H](CCCCNC(=O)[C@H](CC(C)C)NC(=O)C2OC2C(=O)O)NC(=O)CN2CCN(CC(=O)[O-])CCN(CC(=O)[O-])CCN(CC(=O)[O-])CC2)cc1C(C)C.[177Lu+3] (mixture of isomers)	HT-29 tumour model	–	host not given, bone	72 h, tumour-bearing	–	tracer uptake	0.05 %ID/g
O=C(O)c1ccc(Nc2c(-c3ccccc3)nc3ccc(CON=Cc4c(F)cccc4Oc4ccccc4)cn23)cc1	TDP1	enzyme activity, inhibitor	–	100 µM, unpurified compound	–	inhibition	54.6%
CC(C)OCCOCc1ccc(OCC(O)CN(N=O)C(C)C)cc1 (stereo not shown)	Escherichia coli	enhanced Ames test	WP2 uvrA	5000 µg/plate, without S9	relative to: solvent control	revertant fold increase	0.7 fold
C=C(NC(=O)c1csc(-c2nc3c(cc2O)-c2nc(cs2)C(=O)NC(C(C)O)C(=O)NC(=C(C)OC)c2nc(cs2)C(=O)NC2c4nc(cs4)C(=O)NC(COC(=O)c4c5c6c(cccc6n4O)COC(=O)C(OC4CC(C)(O)C(N(C)C)C(C)O4)C2OC5)c2nc-3cs2)n1)C(N)=O (stereo not shown)	–	–	cynomolgus monkey, female, plasma	intravenous infusion, 1.5 mg/kg twice daily, 0 to 30 h	–	AUC(0-inf)	26300 ng·h/mL
CCOc1cccc2ccc(C=NOCc3ccc(-c4nc5cc(-c6ccccc6)ccn5c4Nc4ccc(C(=O)O)cc4)cc3)nc12	TDP1	enzyme activity, inhibitor	–	100 µM, unpurified compound	–	inhibition	89%
O=c1ccccc(Br)c1O	HepDES19	cell growth or viability, MTS	–	72 h	–	CC50	95.6 µM
COC1CN([C@H]2CC[C@H]([C@@]3(C)Oc4c(Cl)cc(C(=O)NCc5c(SC)cc(C)[nH]c5=O)c(C)c4O3)CC2)C1	–	RNA-seq, item: PGLYRP1	human, whole blood	dose not given, 24 h	relative to: pretreatment baseline	log2 fold change	1.07
Nc1nc2cc(C(=O)c3ccc(F)cc3)ccc2[nH]1	Escherichia coli	Ames preincubation test	WP2 uvrA	312.5 µg/plate, 3 days, without S9	–	revertants per plate	26.3 revertants/plate
O=c1c(O)cccc2cc(O)c(O)c(O)c12	HepDES19	cell growth or viability, MTS	–	72 h	–	CC50	92 µM
CNC(=O)C1CCCN(C(=O)C2CC3CCC2N3C(=O)[C@@H]2C[C@@H](O)CN2C(=O)NCc2cccc(Cl)c2F)C1 (mixture of isomers)	CYP2C19 (Homo sapiens, UniProt P33261)	enzyme activity, inhibitor, time-dependent inhibition	–	5.56 µM, preincubated without NADPH	relative to: negative control	remaining activity	87.9%

A few entries again:
SMILES	tested on	test	test system	setting	scale	measurement	result
CCOc1cccc2ccc(C=NOCc3ccc(-c4nc5cc(-c6ccccc6)ccn5c4Nc4ccc(C(=O)O)cc4)cc3)nc12	TDP1	enzyme activity, inhibitor	–	100 µM, unpurified compound	–	inhibition	89%
O=c1ccccc(Br)c1O	HepDES19	cell growth or viability, MTS	–	72 h	–	CC50	95.6 µM
